Assay results of several laboratories.
Numbered parts are unrelated; each lists some results of a single study. Positions count from the first letter of the parent shown.

Set 1 — target: CCNE2, cyclin fold, Cln2 fusion (human); technique: yeast growth competition, sequencing; medium: yeast; setting: weak parent motif; baseline: not given; direction: higher = stronger binding
Parent: CDC6 docking peptide (human); TLKGRRLVFDNQL; partner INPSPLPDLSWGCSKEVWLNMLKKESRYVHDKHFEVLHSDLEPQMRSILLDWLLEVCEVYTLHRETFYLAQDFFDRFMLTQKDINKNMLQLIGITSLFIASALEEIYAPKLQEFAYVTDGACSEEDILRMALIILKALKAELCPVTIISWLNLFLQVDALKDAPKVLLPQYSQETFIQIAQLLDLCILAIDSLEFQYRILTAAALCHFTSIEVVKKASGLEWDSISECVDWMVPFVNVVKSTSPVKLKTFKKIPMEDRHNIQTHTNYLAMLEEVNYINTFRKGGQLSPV
Variant	normalised enrichment score
TLKGRRLVFRNQL [D10R]	0.787
TLKGRRLKFDNQL [V8K]	0.257
TLKGRRLVHDNQL [F9H]	0.148
TLKRRRLVFDNQL [G4R]	1.58
TVKGRRLVFDNQL [L2V]	0.565
TLKERRLVFDNQL [G4E]	-0.119
TLKGRRLVFDNQQ [L13Q]	0.868
TLKGRRLVFDFQL [N11F]	1.35
TLKGRRLVFDHQL [N11H]	0.572

Set 2 — technique: protein-binding microarray; molecule type: double-stranded DNA, one strand shown; medium: in vitro; concentration: 2540 nM top; setting: 60-bp whole probe; with: salmon DNA 0.4 mg/ml; baseline: random background probes; direction: higher = stronger binding; shared flanks, not repeated: GCCTAGCAC … GTCTTGATTCGCTTGACGCTGCTG
Target: Interferon regulatory factor 3, full length, phosphomimetic (IRF3, Homo sapiens, UniProt Q14653, residues 1-427, S386D/S396D/S398D/S402D/T404D/S405D)
UniProt Q14653, sequence (whole entry, unmodified, looked up): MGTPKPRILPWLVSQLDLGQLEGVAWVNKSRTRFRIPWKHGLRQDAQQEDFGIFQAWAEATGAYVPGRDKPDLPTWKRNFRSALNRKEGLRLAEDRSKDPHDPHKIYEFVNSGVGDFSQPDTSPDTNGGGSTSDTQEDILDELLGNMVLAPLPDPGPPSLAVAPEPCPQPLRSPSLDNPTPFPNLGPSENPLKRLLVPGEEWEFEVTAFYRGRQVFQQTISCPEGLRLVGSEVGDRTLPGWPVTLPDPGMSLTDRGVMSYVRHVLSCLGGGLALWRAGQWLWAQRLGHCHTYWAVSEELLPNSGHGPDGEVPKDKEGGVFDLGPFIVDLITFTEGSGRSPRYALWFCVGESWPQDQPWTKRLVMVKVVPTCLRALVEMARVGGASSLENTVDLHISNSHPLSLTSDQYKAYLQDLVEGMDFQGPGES
Sequence	fitted relative affinity
TTAGGTTTCGACACTGGGTTTGTGCTA	2.4 z-score
TCAGATTTTTAGTTAGAACTGTGCTAG	0.149 z-score
GACGATGTCAGTATCGAGACGTGCTAG	0.45 z-score
GACGGTTTCGGGGCTGGGGACGTGCTA	3.1 z-score
TTAGATTCCAGTTTCGTTTAGTGCTAG	4.92 z-score
GACGGTATCGTGTATCGGGACGTGCTA	0.91 z-score
TTCGATATCAGTATCGATTAGTGCTAG	1.98 z-score

Set 3 — technique: DHFR PCA, deep sequencing; medium: yeast; with: (+)-ABA 17 µM; baseline: wild-type fitted maximum; direction: higher = stronger binding
Target: ABI1, truncated, D143A, DHFR fusion (Arabidopsis thaliana)
Setting: methotrexate growth selection, single substitutions
Parent: PYL1, truncated, DHFR fusion (Arabidopsis thaliana); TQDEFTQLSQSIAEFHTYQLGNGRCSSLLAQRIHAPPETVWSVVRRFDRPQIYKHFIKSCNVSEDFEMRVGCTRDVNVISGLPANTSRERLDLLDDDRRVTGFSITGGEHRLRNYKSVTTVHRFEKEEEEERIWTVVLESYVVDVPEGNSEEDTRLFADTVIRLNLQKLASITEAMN
Variant	relative binding score
S9Q	83.9%
S11Y	81.4%
S117I	-7.16%
S27K	12.5%
L93I	106%
H34V	66.6%

Further values, each from its own experiment
Molecule	target	test	test system	setting	scale	measurement	result
PhoQ, residues 284 288 289 292 302 303 AAQSYM	PhoP, residues 12 14 15 18 19 LHTVM (Escherichia coli, UniProt P23836)	Sort-seq, measured: YFP reporter	E. coli	PhoQ-PhoP variant library, with: 10 µM Mg2+	baseline: high Mg2+ state, higher = stronger signaling	fold induction	28.1

Some of these lines once more (set 1):
Variant	normalised enrichment score
TLKGRRLVFDNQQ [L13Q]	0.868
TLKGRRLVFRNQL [D10R]	0.787
